Measurements pooled from the literature.
Each line is one published result; not all experiments were run side by side. ± marks the error that the study gave.

| SMILES | test | test system | setting | how to read | quantity | result |
| --- | --- | --- | --- | --- | --- | --- |
| [11CH3]c1ccc2nc(C3CCC3)n(-c3ccc4[nH]ncc4c3)c2n1 | – | human female, pancreas | – | – | absorbed radiation dose | 3.7 µSv/MBq |
| CC[C@H](C)[C@H](NC(=O)[C@H](CCCCN)NC(=O)[C@H](CS)NC(=O)[C@H](CC(N)=O)NC(=O)[C@H](C)NC(=O)[C@H](CCCNC(=N)N)NC(=O)[C@H](CCCNC(=N)N)NC(=O)[C@H](CC(N)=O)NC(=O)[C@H](CCCNC(=N)N)NC(=O)[C@@H](NC(=O)[C@H](CCCNC(=N)N)NC(=O)[C@H](CS)NC(=O)[C@H](CO)NC(=O)[C@@H](NC(=O)[C@H](CCC(N)=O)NC(=O)[C@H](CS)NC(=O)[C@H](CCCCN)NC(=O)[C@@H](N)CCCNC(=N)N)[C@@H](C)CC)[C@@H](C)CC)C(=O)N[C@@H](CO)C(=O)N[C@@H](CS)C(=O)N[C@@H](CC(N)=O)C(=O)O | LC/MS | PBS | 0.1 mg/mL | relative to: LC peak area | two-disulfide form | 46% |
| NC12CNCCNCC(NCc3ccc(CNC(=O)CCCC(=O)NCc4ccc(-c5nncnn5)cc4)cc3)(CNCCNC1)CNCCNC2.[64Cu+2] | OLINDA dosimetry | thymus | 24 h pretargeting interval, added: huA33-TCO pretargeting | – | mean absorbed dose | 0.0351 rad/mCi |
| CC1=CC(C)=[N+]2C1=Cc1ccc(CCC(=O)N3CCN(C(=O)c4cc(Cc5n[nH]c(=O)c6ccccc56)ccc4F)CC3)n1[B-]2(F)F | – | athymic nude NU/J mouse, whole blood | intravenous, 2.5 mg/kg | – | beta half-life | 1.47 h |
| N#Cc1cc(C(=O)OCC[18F])c(C(F)(F)F)nc1N1CCN(C(=O)Cc2ccccc2)CC1 | dynamic PET | human, contralateral normal brain | intravenous | – | peak SUV | 2.19 ± 1.42 |
| CSCOC1C(=O)C2(C)C(OCSC)CC3OCC3(OC(C)=O)C2C(OC(=O)c2ccccc2)C2(O)CC(OC(=O)C(O)C(C=C(C)C)NC(=O)OC(C)(C)C)C(C)=C1C2(C)C (stereo not shown) | – | female Sprague-Dawley rat, plasma | intravenous, 4 mg/kg | – | MRT(0-t) | 4.9 h |
| O=C(O)C1OC(OC2C(COS(=O)(=O)O)OC(OC3C(C(=O)O)OC(OC4C(COS(=O)(=O)O)OC(OC5C(C(=O)O)OC(OC6C(COS(=O)(=O)O)OC(OC7C(C(=O)O)OC(OC8C(COS(=O)(=O)O)OC(OC9C(C(=O)O)OC(OC%10C(COS(=O)(=O)O)OC(OC%11C(C(=O)O)OC(Oc%12ccc([N+](=O)[O-])cc%12)C(O)C%11O)C(NS(=O)(=O)O)C%10O)C(OS(=O)(=O)O)C9O)C(NS(=O)(=O)O)C8O)C(OS(=O)(=O)O)C7O)C(NS(=O)(=O)O)C6O)C(OS(=O)(=O)O)C5O)C(NS(=O)(=O)O)C4O)C(OS(=O)(=O)O)C3O)C(NS(=O)(=O)O)C2OS(=O)(=O)O)C(O)C(O)C1OC1OC(COS(=O)(=O)O)C(O)C(O)C1NS(=O)(=O)O (stereo not shown) | – | rat, testes | intravenous, 3600 µg/kg per day, 7 days, day 8 | – | organ-to-body weight ratio | 1.29 ± 0.06 |
| COc1ccc(/C=C/c2ccc(-c3ccc(C)cn3)nc2)cc1 | – | aqueous HEPES buffer | pH 7.4, zinc(II)-saturated form, added: quinine bisulfate reference | – | fluorescence quantum yield | 0.31 |
| N=C(N)NCCC[C@@H]1NC(=O)[C@H](Cc2c[nH]c3ccccc23)NC(=O)[C@@H](CC2CCCCC2)NC(=O)[C@@H]2CCCN2C(=O)[C@@H](NC(=O)CCc2ccccc2)CCCNC1=O | – | C57BL/6J mouse, plasma spinal cord | intraperitoneal, 1 mg/kg single dose | – | MRT(0-last) | 0.65 h |
| O=C(O)c1cccc(S(=O)(=O)Nc2ccccc2)c1 | – | human, severe liver dysfunction, plasma | intravenous, 400 mg/m^2 belinostat, cycle 1 day -7, geometric mean | relative to: metabolite over belinostat | Cmax metabolic ratio | 0.071 |
| CCCC[C@H](NC(=O)CNC(=O)CNC(=O)CN1CCN(CC(=O)O)CCN(CC(=O)O)CCN(CC(=O)O)CC1)C(=O)N[C@H]1CC(=O)NCCCC[C@@H](C(N)=O)NC(=O)[C@H](Cc2c[nH]c3ccccc23)NC(=O)[C@H](CCCNC(=N)N)NC(=O)[C@@H](Cc2ccccc2)NC(=O)[C@H](Cc2c[nH]cn2)NC1=O [copper-64 labelled] | – | female C57 mouse, B16/F1 melanoma | intravenous, 0.037 MBq, 4 h | relative to: tumour over stomach | uptake ratio | 1.03 |
| CCc1nc(-c2ccc(-c3ccc(CCC(N)(CO)CO)cc3)cc2)co1 | – | Sprague-Dawley rat | oral, 10 mg/kg, single dose | – | heart rate | no effect |
| CC(C)(Sc1cc[n+]([O-])cc1-c1ccc(C#N)c2ccccc12)C(=O)OC1OC(C(=O)O)C(O)C(O)C1O (stereo not shown) | – | adult men, plasma | oral, 15 mg verinurad, moderate renal impairment | relative to: impaired over normal renal function | Cmax ratio | 156% |
| CNC(=O)c1ccc(N2CCN(Cc3ccc4nc(C)c(=O)[nH]c4c3F)CC2)c([18F])n1 | – | rat liver microsomes | 90 min | – | remaining intact tracer | > 95% |
| CC(=O)N[C@H](CSSC[C@H](N)C(=O)O)C(=O)N[C@H](C)C(=O)N[C@H](CCCNC(=N)N)C(=O)N[C@H](CCCNC(=N)N)C(=O)N[C@H](CCCNC(=N)N)C(=O)N[C@H](C)C(=O)N[C@H](CCCNC(=N)N)C(N)=O | – | male human, plasma | intravenous, 0.5 mg, single dose, healthy volunteers | – | clearance | 89 mL/min |
| CC(C)(Sc1ccncc1-c1ccc(C#N)c2ccccc12)C(=O)OC1OC(C(=O)O)C(O)C(O)C1O (stereo not shown) | – | adult men, plasma | oral, 15 mg verinurad, severe renal impairment | relative to: normal renal function | AUC(0-inf) increase | 316% |

| SMILES | test | test system | setting | how to read | quantity | result |
| --- | --- | --- | --- | --- | --- | --- |
| Cn1c(=O)oc2ccc(-c3ccc(CC(C#N)NC(=O)C4CNCCCO4)c(F)c3)cc21 (stereo not shown) | – | human | oral, 20 mg once daily, TEAE, multiple ascending dose | – | AST increased incidence | 0% |
| O=C(O)[C@@H]1C[C@@H](O)CN1C(=O)[C@@H]1CCCN1 | potentiometric titration | – | 37 °C, MAH-1 complex, added: Fe(III) | – | log beta | 11.2 |
| CC[C@H](C)[C@H](NC(=O)[C@H](Cc1ccccc1)NC(=O)[C@H](CC(=O)O)NC(=O)[C@@H]1CCNC(=O)NCCCC[C@H](NC(=O)[C@H](CC(C)C)NC(=O)[C@H](CCCNC(=N)N)NC(=O)[C@H](CCSC)NC(=O)[C@H](C)N)C(=O)N[C@@H](CCCCN)C(=O)N[C@@H](Cc2ccccc2)C(=O)N[C@@H](Cc2ccccc2)C(=O)N1)C(=O)N[C@@H](CC(C)C)C(=O)N[C@@H](CCC(N)=O)C(=O)N[C@@H](CCCNC(=N)N)C(=O)N[C@@H](CCCCN)C(=O)N[C@@H](CCCCN)C(=O)O | circular dichroism | 20% TFE in PBS | 200 µM, pH 7.4, 25 °C | – | helicity | 24.4% |
| CCCC(CCC)NC(=O)c1ccc(O)c(O)c1 | – | male Sprague-Dawley rat, plasma | oral, 50 mg/kg of parent drug | – | Tmax | 0.44 h |
| CC(C)[C@H](NC(=O)CNC(=O)[C@H](CCC(N)=O)NC(=O)[C@H](C)N)C(=O)O | LC-MS/MS | human, plasma | intravenous, 20 mg/kg three times daily, day 3, first dose, 10 min infusion, geometric mean | – | AUC(0-inf) | 566 ng·h/mL |
| CC(C)[C@H](NC(=O)[C@@H]1CCCN1C(=O)[C@H](CCCNC(=N)N)NC(=O)[C@H](CS)NC(=O)[C@H](Cc1c[nH]c2ccccc12)NC(=O)[C@H](CCCNC(=N)N)NC(=O)[C@@H](Cc1ccccc1)NC(=O)[C@H](Cc1c[nH]cn1)NC(=O)[C@H](CCC(=O)O)NC(=O)[C@H](CS)NC(=O)[C@H](CS)NC(=O)CNC(=O)[C@@H]1CC(=O)N[C@@H](CCCNC(=N)N)C(=O)NCC(=O)N[C@@H](CC(=O)O)C(=O)N[C@H](Cc2ccc(O)cc2)C(=O)N1)C(N)=O [technetium-99m labelled] | – | C57 mouse, female, B16/F1 melanoma | intravenous, 0.037 MBq, 2 h | relative to: tumour over liver | tumour to tissue ratio | 4.56 |
| NC(=S)N/N=C/c1ccccn1 | cyclic voltammetry | anhydrous DMF | Cu2+ complex, glassy carbon electrode | – | peak potential separation | 0.137 mV |
| CC(C)c1cnc(-c2cc(Cl)ccc2F)cc1Nc1ccncc1C(=O)NC(CO)CO | – | patients, phase I monotherapy | oral, dose not given, grade 4 | – | patients with ALT increase | 0% |
| O=C(O[C@@H]1Cc2c(O)cc(O)cc2O[C@@H]1c1cc(O)c(O)c(O)c1)c1cc(O)c(O)c(O)c1 | methylation, substrate | human liver cytosol | 10 min, pH 7.4 | – | Km | 0.17 ± 0.04 µM |
| COc1ccc2c(c1OCc1ccccc1)C[C@@H](C(=O)O)N(c1nc3ccc(C#N)cc3o1)C2 | metabolic stability | human, hepatocytes | 1 µM | – | scaled CLint | 26 mL/min/kg |
| C=C(c1cc(F)c(C(=O)O)c(F)c1)c1cc2c(cc1C)C(C)(C)CCC2(C)C | – | Sprague-Dawley rat, male | oral, 100 mg/kg, 1 h, sesame oil vehicle | – | blood cholesterol | 122 ± 17.2 mg/dL |
| CC(C)(O)c1ccc(N2Cc3c(ccnc3-c3ccc(F)cc3OCC(F)(F)F)C2=O)cc1 | – | PAMPA | pH 5 | – | Papp | 31.3 ×10⁻⁶ cm/s |
| COc1cc(NC(C)=O)c2c(c1O)-c1c(OC)c(OC)cc3c1C(C2)N(C)CC3 (stereo not shown) | – | male Wistar rat, plasma | intravenous, 100 mg/kg | – | MRT(0-t) | 1.63 h |
| CC[C@H](C)[C@H](NC(=O)[C@H](Cc1ccccc1)NC(=O)[C@H](CN)NC(=O)[C@H](CCCNC(=N)N)NC(=O)[C@H](Cc1ccccc1)NC(=O)[C@H](Cc1ccccc1)NC(=O)[C@H](CCCCN)NC(=O)[C@H](CO)NC(=O)[C@H](CC(C)C)NC(=O)[C@H](CCCNC(=N)N)NC(=O)[C@H](CCSC)NC(=O)[C@H](C)N)C(=O)N[C@@H](CC(C)C)C(=O)N[C@@H](CCCN)C(=O)N[C@@H](CCCNC(=N)N)C(=O)N[C@@H](CCCCN)C(=O)N[C@@H](CCCCN)C(=O)O | circular dichroism | 20% TFE in PBS | 200 µM, pH 7.4, 25 °C | – | helicity | 5.6% |
| CC(=O)N[C@@H](CC(N)=O)C(=O)NCC(=O)N[C@@H](CCCNC(=N)N)C(=O)N[C@@H](C)C(N)=O | 1H NMR | sodium phosphate buffer 50 mM | pH 7.4, 55 °C | – | half-life of Asn form | 3 h |

A few entries again:
| SMILES | test | test system | setting | how to read | quantity | result |
| --- | --- | --- | --- | --- | --- | --- |
| C=C(c1cc(F)c(C(=O)O)c(F)c1)c1cc2c(cc1C)C(C)(C)CCC2(C)C | – | Sprague-Dawley rat, male | oral, 100 mg/kg, 1 h, sesame oil vehicle | – | blood cholesterol | 122 ± 17.2 mg/dL |
| CC[C@H](C)[C@H](NC(=O)[C@H](Cc1ccccc1)NC(=O)[C@H](CN)NC(=O)[C@H](CCCNC(=N)N)NC(=O)[C@H](Cc1ccccc1)NC(=O)[C@H](Cc1ccccc1)NC(=O)[C@H](CCCCN)NC(=O)[C@H](CO)NC(=O)[C@H](CC(C)C)NC(=O)[C@H](CCCNC(=N)N)NC(=O)[C@H](CCSC)NC(=O)[C@H](C)N)C(=O)N[C@@H](CC(C)C)C(=O)N[C@@H](CCCN)C(=O)N[C@@H](CCCNC(=N)N)C(=O)N[C@@H](CCCCN)C(=O)N[C@@H](CCCCN)C(=O)O | circular dichroism | 20% TFE in PBS | 200 µM, pH 7.4, 25 °C | – | helicity | 5.6% |
